Results pooled from the literature.
Every numbered part comes from another study and shows a few of its results, in no order. Positions count from the first letter of the parent shown.

Set 1
Target: RING finger protein unkempt homolog, zinc fingers 1-6, GST-SBP tag (UNK, Homo sapiens, UniProt Q9C0B0, residues 30-357)
Method: RNA Bind-n-Seq
Form: RNA
Sample: in vitro
Concentration: not given
Setting: RNA with constant flanks, human-mouse chimeric sites, ends assumed
Relative to: input RNA pool
Reading: higher = stronger binding
Endpoint: bound/input enrichment
Constant ends, left off below: GGGAGUUCUACAGUCCGACGAUC … CAACAGAGGAUUGAGCAUCA
Target sequence (chain): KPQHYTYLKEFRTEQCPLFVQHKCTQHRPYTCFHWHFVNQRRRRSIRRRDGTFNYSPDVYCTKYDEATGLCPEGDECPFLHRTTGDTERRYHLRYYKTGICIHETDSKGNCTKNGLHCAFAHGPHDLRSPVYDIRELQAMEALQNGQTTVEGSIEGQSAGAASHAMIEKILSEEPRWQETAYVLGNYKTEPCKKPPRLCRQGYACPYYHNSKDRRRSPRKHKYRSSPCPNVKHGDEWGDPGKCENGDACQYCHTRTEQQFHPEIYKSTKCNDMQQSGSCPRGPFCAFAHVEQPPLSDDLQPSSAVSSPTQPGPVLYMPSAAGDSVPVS
UCGGAUGCUGUGCUGGGUCACUUUUCAUAUCCAGAUCCUUCCCAGUGGACAGAUGAAGAAUUAGGUAUCCCUCCUGAUGACGAGGACUGACACUGUAAACUCUCUGGACGAGUAGGAGCA: 0.736 ratio
CACACACUCUUCUGUGGGACCCUCAUCUUGCAGGCCCGGGCCUAUGUGGGACCGCACGUCCUGGCAGUGGUGACCCGCACAGGGUUCUGCACAGCCAAAGGGGGCCUGGUGAGCUCCAUC: 0.0732 ratio
AGAAUCUUGGGACUGUUUUACUUAAUUGGUCAUUGAUAGCUUAACAAACAUGGAGAUAAGAUUAGAAAUCUUGACAUCAACAAGUAUUAAGCAGAAAAAACCAUGGCCACGUGUCUCCUG: 0.125 ratio
CUAGCAGUCCAGCAGCUCCUUGAAAUAUUGAGACAAACACUCCACACACAGGGAAGGCGAUAACAUUGUACAUUGGUUUACAUUUUUUCCCCCUGUGGAUUUUUCUAGAGGUCAUAGUGC: 0.798 ratio
UUGCUACUGACUCCCUGGGUUAAAUUCCUGUGGGAAUCUUACAGGCAGUGUUUGGACCUUCUUCGAAACAAUUCUAGAGUAGAGCGCCUUUACCAUGAUAUCGCCCAACAAGCUUUCAAA: 0.177 ratio
CUGUGACCACAAGAUCCUACCUGAGUGGCAGCUGAAGUUGACUCCCUCCCCUUCCCUGAACCCCCCCCCACUGCCCCCCCAUCCCCCAGUGUCGGCUGAGAUGUUGCCAGCAGACAGUUC: 0.661 ratio
GAUCAUGAACCACCAUCAGAAAUGAAGAUGAGAUUACCCAGACGAGCCAAAACAGCUAGCACUAGAAAAAAGUAAACUAACCUUGCAGAGUUCCUUAAUGAAGAUACAAGUUAAGAGAGC: 3.4 ratio
GGAAUUGCUGAUUCAAGUAAGUUUGAGUAUCACAAUGUUAGCUUUCUAAUUCCAUAAAAGUACUUGGUUUUUACAGUUUAUAAUCUGACAUCACCCCAGCGCCAUUUGUAAAGAGCAACU: 0.39 ratio
ACUCUUGACUCUUUCCAUCCUCUUCCUUUUCCUCUUGAUAUUCAAGGCCAUGAAUCCCAAAAUAGCUGUCUUAGUGGCUAGCACCCAAACAGAGGUGGAAUAAAUCCACCCCAGUGUCUC: 0.868 ratio
AAAGAACUUGCUGAUGAUGAAGAUGAGGAAGACAAUGAUGAUGUUGAACCCAUUUCUGAAUUUCGAUUUGUGCCCAGUGAUAAGUCAGCAUUGGAGGCGAUGUUCACAGCAAUGUGUGAG: 0.327 ratio
GAUAAGAAAAGCUUGUUGGAGACCCGCUUGCAUGUCACUGGUAGAGACCUGAGGUGUAAAAUAGCUGAAACUUUCGGAUUUCAAGAAAAUUACAUCAAGAUCGUAAUAAAUAAGAAACAG: 0.363 ratio

Set 2
Target: Histone acetyltransferase KAT6A, winged helix 1, GST fusion (KAT6A, Homo sapiens, UniProt Q92794, residues 1-85)
Method: protein binding microarray
Form: double-stranded DNA, one strand shown
Sample: in vitro
Concentration: not given
Setting: 8-mer, flanks averaged, mean of 2 arrays, mostly near background
Relative to: not given
Reading: higher = stronger binding
Endpoint: E-score
Target sequence (chain): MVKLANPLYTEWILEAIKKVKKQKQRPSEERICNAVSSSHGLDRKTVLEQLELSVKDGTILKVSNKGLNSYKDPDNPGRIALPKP
CGGGAGGC: 0.233
TGCGCTAA: 0.238
ATTATGGG: 0.00917
CTTAACCC: -0.0442
AAGTAGTA: -0.166
AAGATAGT: -0.158
AAAGCTAT: 0.0092
ATACATTC: -0.103
GACTGCGC: 0.259
CCTATAGG: -0.0782
GTGAATGA: -0.165
GTCGGCTA: 0.303
TTGCAAAA: -0.273
GAACTATA: 0.039
ATGTACGA: -0.166
ACGTGAGT: -0.201
GCCGCTTA: 0.339
ATTACCAG: 0.0417
ATCAACAA: -0.113
GCAGACCC: 0.143
ACTAGCTG: -0.133
GCGGATTA: 0.158
AAACCGAT: 0.0143
CAGCGTAG: 0.0425

Set 3
Target: CCND1, cyclin fold, Cln2 fusion (human)
Method: yeast growth competition, sequencing
Sample: yeast
Setting: strong parent motif
Relative to: not given
Reading: higher = stronger binding
Endpoint: normalised enrichment score
Starting sequence: CDKN1A docking peptide (human); SKACRRLFGPVDS
R6D: 0.717
R6L: 1.66
D12W: 1.12
R5A: 0.205
S1A: 1.25
L7H: 0.0947
D12A: 1.59
R5T: 0.48
V11Y: 3.16
L7G: -0.149
D12H: 1.54
C4T: 0.929
K2M: 1.97
L7A: -0.281
R6I: 3.19
V11M: 2.83

Set 4
Target: RNA binding protein fox-1 homolog 2, RRM domain, GST-SBP tag (RBFOX2, Homo sapiens, UniProt O43251-10, residues 100-194)
Method: RNA Bind-n-Seq
Form: RNA
Sample: in vitro
Concentration: 365 nM
Setting: natural RNA segment, single round, ends assumed
Relative to: no-protein control
Reading: higher = stronger binding
Endpoint: RBNS enrichment (R)
Constant ends, left off below: GGGAGUUCUACAGUCCGACGAUC … UGGAAUUCUCGGGUGCCAA
Residues (chain): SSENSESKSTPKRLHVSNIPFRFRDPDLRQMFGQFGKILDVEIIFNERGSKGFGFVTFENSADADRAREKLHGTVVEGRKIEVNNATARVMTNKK
UUAUGACUGGUAAGAGGGAGUGCUCCUGGACCCUGCUCGUGUGCCUUUUUCUACUGUUCAUUUUAUUCUGUGGCCUUUCAGUGUAAUAAACUGAAAUCAUGACUUUCACA: 0.518
UUUGCUUGGCUCUCAUUCUCUCUUGUCUGCUGCCAUGUAAGAUGUGCCUUUUGCCUUCCACCAUGAUUGUGAGGCCUCCCAGCCACAUGGAACUGUGAGUUCAUUAAACC: 0.334
CAGAUCCUAGCUCCGCCUCCUGGGCAGUCCUUCUGAAAAGUCCCAUGUAAGCAGCAAAGGGGCGUAAGUAGCCACGAGGCACCUCGCAUGCCUUCUUCAGUGGCUGAGGG: 1.28
UUGAGUUUGUCACUCCAGUAACUAUUAACACAGAUUUUGUCAUGGCCUAUCAUUUCUUUUACCUUUAACUCAACUCUGAACUGAUUGAAUAAGUGCUAAGCUUAUUCUUU: 0.505
UCAUAAAAGUAGCAACCUUCAUUUUACAUUCUGUCUGUUUUUCUUUUUUUGCUUUGUUUUGUUUGUGCUAAUUUGGGAAUUGUGUACUCCGAAACAAGUAGAAAAGUGCU: 1.18
UCUCAGCCAAAGAGGGAAAGGAAAGGGUCGCUCUUGACUGCUGAGAGCAUAGCUAAUGUACCUGGAAUCUGAGCAGCCCUGGUCUCAGCAGAGCCUGAAAUUAAACUCAU: 0.434
AUAUCUCCAAGUGGAAACGUGCUAACUUUCUGUAAAUCUUAAAUAAAAGGUGCUGUUCCUUCCUCUGACCCAGGACUGGUUUGUGUUUUCUGUCUUUCUUUCCAUUCCUU: 0.626
GUCUUAUGCAUAUACGUAAUGUCACCUAUUUAGGUAUCAUCCUAUUUGAGAGUUUGAGGAACUGAAACGUGUUGUGUUCAAGCAGCCUGGUGGCUAGUGCCUUCAUAUUA: 0.75
CCUUCCCUGGAUGGAGUCAGGGCGGGGGCACUGUCCUCCACUGCUAGACACCCCCAGAAUGCCUGGCGCUCUGCAGAGCACAGUCUGAGCUGCUCUAAGAAGGGGUCUCC: 0.335
GGAAGCCUGCUGGCCUCGGGUAUGGGCUUCUCUGCCAGUCUCUGGACUGGCCCUUCAAGGAGGUGGAAGUGGUUUUCUCUGUGUUUGAGUCAUUGAGUAUUGAAGCCAUG: 0.326
CAAACCCCAUACUCUUAGAAUUCAUUAUAUUAUGGUGAUAUCCGAACCUAGUGAAUGGUAUGCUUGGGUGUUUUCCAUUGAGAGUGGAUGGACCUCUUUAUAAAGUUGGU: 0.534
ACAAAGUUGUCUUACCUGUCAGUGUAUGAAGCACUUUGCUCCUUAAGACAGACACCUUGGAACUUUCAUUCGGAAAUUAGUCCCCGAAGUUUGAGAUAAGUCUUUUUUUG: 0.336

Set 5
Target: Prothrombin, mature alpha-thrombin (F2, Homo sapiens, UniProt P00734)
Method: aptamer microarray, sandwich
Form: DNA with 2'F-ANA
Sample: in vitro
Concentration: 200 nM
Setting: whole 15-mer aptamer, many near background
Added: Cy3 exosite-II aptamer, 400 nM
Reading: higher = stronger binding
Endpoint: mean fluorescence intensity
Strand: GGTTGGTGTGGTTGG
2'F-ANA at 1 2 4 5 6 8 11 13 15: 71.6 a.u.
2'F-ANA at 9 12 13: 767 a.u.
2'F-ANA at 1 3 4 7 9 14: 96.7 a.u.
2'F-ANA at 1 3 4 5 6 8 9 11 13 14 15: 50.6 a.u.
2'F-ANA at 1 2 3 4 5 7 11 12 13 14 15: 49.5 a.u.
2'F-ANA at 1 3 4 5 7 9 11 14: 102 a.u.
2'F-ANA at 3 5 6 7 8 9 11 12: 206 a.u.
2'F-ANA at 2 4 5 6 7 10 12 15: 59.1 a.u.
2'F-ANA at 4 5 7 8 11 13 15: 92.4 a.u.
2'F-ANA at 1 3 4 6 7 8 10 11 12 15: 76.7 a.u.
2'F-ANA at 2 3 5 6 11 12: 231 a.u.
2'F-ANA at 1 2 4 5 6 7 12 13 15: 90.1 a.u.
2'F-ANA at 1 2 3 4 5 6 10 11 12 14 15: 49.4 a.u.
2'F-ANA at 3 7 9 12: 1610 a.u.
2'F-ANA at 2 3 5 9 10 13: 57.4 a.u.
2'F-ANA at 3 4 6 10 12: 257 a.u.
2'F-ANA at 3 6 7 9 10 11 12 15: 491 a.u.
2'F-ANA at 1 2 3 6 8 10 12 13 14: 53.9 a.u.
2'F-ANA at 1 2 3 8 10 11 12: 82.2 a.u.
2'F-ANA at 1 3 4 6 8 9 14 15: 64.9 a.u.
2'F-ANA at 2 3 5 6 9 10 13 15: 48.7 a.u.
2'F-ANA at 3 5 6 7 8 11 12 14: 62.1 a.u.
2'F-ANA at 1 2 3 4 7 8 10 11 12 15: 73.6 a.u.
2'F-ANA at 1 3 5 7 11 12 13 15: 117 a.u.
2'F-ANA at 2 3 6 8 9 11 12 13 14 15: 328 a.u.

Set 6
Target: Sal-like protein 4, full length isoform B (SALL4, Homo sapiens, UniProt Q9UJQ4-2, residues 1-616)
Method: universal PBM
Form: double-stranded DNA, one strand shown
Sample: in vitro
Concentration: not given
Setting: 8-mer, flanks averaged, mean of replicates
Reading: higher = stronger binding
Endpoint: E-score
Target sequence (chain): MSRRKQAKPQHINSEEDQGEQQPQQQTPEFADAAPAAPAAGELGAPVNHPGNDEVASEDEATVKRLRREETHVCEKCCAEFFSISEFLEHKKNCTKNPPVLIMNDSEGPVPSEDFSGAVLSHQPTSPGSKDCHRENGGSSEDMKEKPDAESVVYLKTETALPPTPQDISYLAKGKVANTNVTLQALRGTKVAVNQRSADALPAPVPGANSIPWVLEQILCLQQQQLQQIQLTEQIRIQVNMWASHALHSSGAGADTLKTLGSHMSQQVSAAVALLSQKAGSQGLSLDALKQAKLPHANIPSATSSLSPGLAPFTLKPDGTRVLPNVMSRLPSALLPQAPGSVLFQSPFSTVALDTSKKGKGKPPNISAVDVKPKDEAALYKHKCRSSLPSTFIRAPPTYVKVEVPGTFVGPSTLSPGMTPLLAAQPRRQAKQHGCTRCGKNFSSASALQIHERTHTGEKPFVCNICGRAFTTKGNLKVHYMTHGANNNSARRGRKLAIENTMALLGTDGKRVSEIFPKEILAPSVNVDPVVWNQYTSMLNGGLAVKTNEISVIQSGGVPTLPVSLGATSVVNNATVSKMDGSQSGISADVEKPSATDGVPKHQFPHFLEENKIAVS
TCAGGTCA: -0.0693
ACAACTGG: -0.174
CGCCTAAC: -0.155
CGGGTCAC: -0.35
AGAATCTA: 0.0943
AGTGATTA: 0.205
GGGTCCAA: -0.171
AACGACTA: 0.158
GTACTTAA: 0.185
CTCTCCTC: -0.225
CCTAGTAC: 0.0318
CCTAGTTC: -0.0997
CAATAGTC: 0.0274
AGTTCTAT: 0.0858
CGTGCGTA: -0.0843
GATGCGAC: -0.124
AGTACCAT: 0.19
CTACCAAA: 0.146
